Measurements pooled from the literature.
Compare with care: the assays were run in different laboratories.
Organism: Klebsiella pneumoniae

Compound	test	system	conditions	MIC
CC[C@H](C)CCCCC(=O)N[C@@H](CCN)C(=O)N[C@H](C(=O)N[C@@H](CCN)C(=O)N[C@H]1CCNC(=O)[C@H]([C@@H](C)O)NC(=O)[C@H](CCN)NC(=O)[C@H](CCN)NC(=O)[C@H](CC(C)C)NC(=O)[C@@H](CC(C)C)NC(=O)[C@H](CCN)NC1=O)[C@@H](C)O	broth microdilution	ATCC 13883		0.25 µg/mL
CC[C@H](C)[C@H](N)C(=O)N[C@@H](CC(C)C)C(=O)NCC(=O)N[C@H](CCCNC(=N)N)C(=O)N[C@H](C(=O)N[C@@H](Cc1c[nH]c2ccccc12)C(=O)N[C@@H](CCCCN)C(=O)NCC(=O)N[C@H](C(=O)N[C@@H](CCCCN)C(=O)N[C@@H](CC(=O)O)C(=O)N[C@H](C(=O)N[C@@H](CC(C)C)C(N)=O)[C@@H](C)CC)[C@@H](C)CC)[C@@H](C)CC	broth microdilution	ATCC 27736, Mueller-Hinton broth	16 h, 37 °C	50 µM
NCC[C@H](O)C(=O)N[C@@H]1C[C@H](N)[C@@H](O[C@H]2O[C@H](CN)[C@@H](O)[C@H](O)[C@H]2O)[C@H](O)[C@H]1O[C@H]1O[C@H](CO)[C@@H](O)[C@H](N)[C@H]1O	broth microdilution	KPC-25 producing		> 128 µg/mL
CN(C)[C@@H]1C(O)=C(C(N)=O)C(=O)[C@@]2(O)C(O)=C3C(=O)c4c(O)c(NC(=O)CNC(C)(C)C)nc(Cl)c4C[C@H]3C[C@@H]12.Cl.Cl.Cl		tet(A)-carrying		> 32 µg/mL
C[C@@H](O)[C@H]1C(=O)N2C(C(=O)O)=C(SCCN=CN)C[C@H]12		NCCP 15782 carbapenem-resistant, Mueller-Hinton broth	16 h, 37 °C	> 128 µM
CC(=O)N[C@@H](CCCCN)C(=O)N[C@@H](C)C(=O)N[C@@H](CC(C)C)C(=O)N[C@@H](CC(C)C)C(=O)N[C@@H](CCCCN)C(=O)N[C@@H](CC(C)C)C(=O)N[C@@H](CC(C)C)C(=O)N[C@@H](CCCCN)C(=O)N[C@@H](CCCCN)C(=O)N1CCC[C@H]1C(=O)N[C@@H](CC(C)C)C(=O)N[C@@H](CCCCN)C(=O)N[C@@H](CC(C)C)C(=O)N[C@@H](CC(C)C)C(=O)N[C@@H](CCCCN)C(N)=O	broth microdilution	ATCC 700603	18 h, 37 °C, compound alone	> 80 µM
CN(C)c1cc(NC(=O)CNC(C)(C)C)c(O)c2c1C[C@H]1C[C@H]3[C@H](N(C)C)C(O)=C(C(N)=O)C(=O)[C@@]3(O)C(O)=C1C2=O	broth microdilution	parental, KPC-33		2 µg/mL
CO[C@@]1(NC(=O)Cc2cccs2)C(=O)N2C(C(=O)O)=C(COC(N)=O)CS[C@@H]21	broth microdilution	ATCC 43816 acrAB overexpressor		4 µg/mL
CC[C@H](C)[C@H](NC(=O)CN)C(=O)NCC(=O)N[C@@H](CCCCN)C(=O)N[C@@H](Cc1ccccc1)C(=O)N[C@@H](CC(C)C)C(=O)N[C@@H](CCCCN)C(=O)N[C@@H](CCCCN)C(=O)N[C@@H](C)C(=O)N[C@@H](CCCCN)C(=O)N[C@@H](CCCCN)C(=O)N[C@@H](Cc1ccccc1)C(=O)NCC(=O)N[C@@H](CCCCN)C(=O)N[C@@H](C)C(=O)N[C@@H](Cc1ccccc1)C(=O)N[C@H](C(=O)N[C@@H](CCCCN)C(=O)N[C@H](C(=O)N[C@@H](CC(C)C)C(=O)N[C@@H](CCCCN)C(=O)N[C@@H](CCCCN)C(N)=O)[C@@H](C)CC)C(C)C	broth dilution	ATCC 700603		< 3.1 µM
COCCNc1nc(Cl)c2c(c1O)C(=O)C1=C(O)[C@]3(O)C(=O)C(C(N)=O)=C(O)[C@@H](N(C)C)[C@@H]3C[C@@H]1C2.Cl.Cl.Cl		tet(A)-carrying		> 32 µg/mL
C[C@H]1COCCN1c1nc(NCc2cccnc2C(F)(F)F)c2cccnc2n1	broth microdilution			128 µg/mL
CC[C@H](C)[C@H](NC(=O)[C@H](C)N)C(=O)N[C@@H](CO)C(=O)NCC(=O)N[C@@H](CO)C(=O)N[C@@H](CC(C)C)C(=O)N[C@H](C(=O)N[C@H](C(=O)N[C@@H](CC(C)C)C(=O)N[C@@H](Cc1ccccc1)C(=O)NCC(=O)N[C@@H](Cc1ccc(O)cc1)C(=O)N[C@@H](CCCNC(=N)N)C(=O)N[C@@H](CCCNC(=N)N)C(=O)N[C@@H](CCCNC(=N)N)C(=O)N[C@@H](CCCNC(=N)N)C(=O)N[C@@H](CCCNC(=N)N)C(=O)N[C@@H](CCCNC(=N)N)C(N)=O)[C@@H](C)O)C(C)C	broth microdilution	ATCC 13883	highest value reported	128 µM
CC(=O)N[C@@H](CCCCN)C(=O)N[C@@H](CC(C)C)C(=O)N[C@@H](CC(C)C)C(=O)N[C@@H](CCCCN)C(=O)N[C@@H](CC(C)C)C(=O)N[C@@H](CC(C)C)C(=O)N[C@@H](CCCCN)C(=O)N[C@@H](CCCCN)C(=O)N1CCC[C@H]1C(=O)N[C@@H](CC(C)C)C(=O)N[C@@H](CCCCN)C(=O)N[C@@H](CC(C)C)C(N)=O	broth microdilution	ATCC 700603	18 h, 37 °C, compound alone	> 80 µM
C[C@@H](O)[C@H]1C(=O)N2C(C(=O)O)=C(SCCN=CN)C[C@H]12		K4, after ceftazidime-avibactam induction	multistep mutant selection, avibactam 2731/4 mg/L	128 µg/mL
CN(C)c1ccc(O)c2c1C[C@H]1C[C@H]3[C@H](N(C)C)C(O)=C(C(N)=O)C(=O)[C@@]3(O)C(O)=C1C2=O	broth microdilution	ATCC 43816 acrAB overexpressor	with: colistin 0.5 mg/L	1 µg/mL
CC(=O)N[C@@H](CCCCN)C(=O)N[C@@H](CCCCN)C(=O)N[C@@H](CC(C)C)C(=O)N[C@@H](CC(C)C)C(=O)N[C@@H](CCCCN)C(=O)N[C@@H](CC(C)C)C(=O)N[C@@H](CC(C)C)C(=O)N[C@@H](CCCCN)C(=O)N[C@@H](C)C(=O)N1CCC[C@H]1C(=O)N[C@@H](CC(C)C)C(=O)N[C@@H](CCCCN)C(=O)N[C@@H](CC(C)C)C(=O)N[C@@H](CC(C)C)C(=O)N[C@@H](CCCCN)C(N)=O	broth microdilution	ATCC 700603	18 h, 37 °C, compound alone	> 80 µM
CCCNc1nc(Cl)c2c(c1O)C(=O)C1=C(O)[C@]3(O)C(=O)C(C(N)=O)=C(O)[C@@H](N(C)C)[C@@H]3C[C@@H]1C2.Cl.Cl.Cl		tet(A)-carrying		32 µg/mL
CC[C@H](C)[C@H](NC(=O)CN)C(=O)NCC(=O)N[C@@H](C)C(=O)N[C@H](C(=O)N[C@@H](CC(C)C)C(=O)N[C@@H](CCCCN)C(=O)N[C@H](C(=O)N[C@@H](CC(C)C)C(=O)N[C@H](C(=O)N[C@H](C(=O)NCC(=O)N[C@@H](CC(C)C)C(=O)N1CCC[C@H]1C(=O)N[C@@H](C)C(=O)N[C@@H](CC(C)C)C(=O)N[C@H](C(=O)N[C@@H](CO)C(=O)N[C@@H](Cc1c[nH]c2ccccc12)C(=O)N[C@H](C(=O)N[C@@H](CCCCN)C(=O)N[C@@H](CCCNC(=N)N)C(=O)N[C@@H](CCCCN)C(=O)N[C@@H](CCCNC(=N)N)C(=O)N[C@@H](CCC(N)=O)C(=O)N[C@@H](CCC(N)=O)C(N)=O)[C@@H](C)CC)[C@@H](C)CC)[C@@H](C)O)[C@@H](C)O)C(C)C)C(C)C		NCCP 15864 carbapenem-resistant		16 µM
CC[C@H](C)[C@H](NC(=O)[C@H](CCCCN)NC(=O)[C@H](CCCCN)NC(=O)[C@H](CCCCN)NC(=O)[C@H](CCCCN)NC(=O)[C@H](CCCCN)NC(=O)[C@@H](N)CCCCN)C(=O)N[C@@H](CO)C(=O)N[C@@H](Cc1ccccc1)C(=O)N[C@@H](CC(C)C)C(=O)NCC(=O)N[C@@H](CO)C(=O)N[C@@H](CCCCN)C(=O)N[C@H](C(=O)N[C@H](C(=O)N[C@H](C(=O)N[C@@H](CC(C)C)C(=O)N[C@@H](CC(C)C)C(=O)N[C@@H](CCCCN)C(=O)N[C@@H](CCCNC(=N)N)C(N)=O)C(C)C)C(C)C)C(C)C	broth microdilution	ATCC 13883	highest value reported	8 µM
CN(C)[C@@H]1C(O)=C(C(N)=O)C(=O)[C@@]2(O)C(O)=C3C(=O)c4c(O)cccc4[C@@](C)(O)[C@H]3C[C@@H]12	broth microdilution	ATCC 43816 acrAB overexpressor		4 µg/mL
COc1ccc2ccc(O)c(/C=N/[C@H]3CCCC[C@H]3/N=C/c3c(O)cccc3F)c2c1	bacterial growth, broth microdilution	carbapenem-resistant		> 40 µM
CCCCCC(=O)N[C@@H](CCCCN)C(=O)N[C@@H](CCCCN)C(=O)N[C@@H](C)C(=O)N[C@@H](CC(C)C)C(=O)N[C@@H](CCCCN)C(=O)N[C@@H](CC(C)C)C(=O)N[C@@H](C)C(=O)N[C@@H](CCCCN)C(=O)N[C@@H](CCCCN)C(=O)N1CCC[C@H]1C(=O)N[C@@H](CC(C)C)C(=O)N[C@@H](CCCCN)C(=O)N[C@@H](CC(C)C)C(=O)N[C@@H](CC(C)C)C(=O)N[C@@H](CCCCN)C(N)=O	broth microdilution	ATCC 700603	18 h, 37 °C, compound alone	> 80 µM
CC[C@H](C)[C@H](NC(=O)[C@H](Cc1c[nH]c2ccccc12)NC(=O)[C@@H](NC(=O)[C@H](Cc1c[nH]c2ccccc12)NC(=O)[C@@H]1CCCN1C(=O)[C@@H](NC(=O)[C@H](C)N)[C@@H](C)CC)[C@@H](C)CC)C(=O)N[C@@H](Cc1c[nH]c2ccccc12)C(=O)N[C@@H](CCCNC(=N)N)C(=O)N[C@@H](CC(C)C)C(=O)N[C@@H](CC(C)C)C(=O)N[C@@H](CCCNC(=N)N)C(=O)N[C@@H](CCCCN)C(=O)NCC(N)=O	broth microdilution	ATCC 700603	18 h, 37 °C	> 15 µM
CC1=C[C@@H]2CN(C(=O)N2OS(=O)(=O)O)[C@@H]1C(N)=O		ATCC 1706, ESBL and NDM	compound alone	> 128 µg/mL

A few entries again:
Compound	test	system	conditions	MIC
CC(=O)N[C@@H](CCCCN)C(=O)N[C@@H](CCCCN)C(=O)N[C@@H](CC(C)C)C(=O)N[C@@H](CC(C)C)C(=O)N[C@@H](CCCCN)C(=O)N[C@@H](CC(C)C)C(=O)N[C@@H](CC(C)C)C(=O)N[C@@H](CCCCN)C(=O)N[C@@H](C)C(=O)N1CCC[C@H]1C(=O)N[C@@H](CC(C)C)C(=O)N[C@@H](CCCCN)C(=O)N[C@@H](CC(C)C)C(=O)N[C@@H](CC(C)C)C(=O)N[C@@H](CCCCN)C(N)=O	broth microdilution	ATCC 700603	18 h, 37 °C, compound alone	> 80 µM
CCCNc1nc(Cl)c2c(c1O)C(=O)C1=C(O)[C@]3(O)C(=O)C(C(N)=O)=C(O)[C@@H](N(C)C)[C@@H]3C[C@@H]1C2.Cl.Cl.Cl		tet(A)-carrying		32 µg/mL
CC[C@H](C)[C@H](NC(=O)CN)C(=O)NCC(=O)N[C@@H](C)C(=O)N[C@H](C(=O)N[C@@H](CC(C)C)C(=O)N[C@@H](CCCCN)C(=O)N[C@H](C(=O)N[C@@H](CC(C)C)C(=O)N[C@H](C(=O)N[C@H](C(=O)NCC(=O)N[C@@H](CC(C)C)C(=O)N1CCC[C@H]1C(=O)N[C@@H](C)C(=O)N[C@@H](CC(C)C)C(=O)N[C@H](C(=O)N[C@@H](CO)C(=O)N[C@@H](Cc1c[nH]c2ccccc12)C(=O)N[C@H](C(=O)N[C@@H](CCCCN)C(=O)N[C@@H](CCCNC(=N)N)C(=O)N[C@@H](CCCCN)C(=O)N[C@@H](CCCNC(=N)N)C(=O)N[C@@H](CCC(N)=O)C(=O)N[C@@H](CCC(N)=O)C(N)=O)[C@@H](C)CC)[C@@H](C)CC)[C@@H](C)O)[C@@H](C)O)C(C)C)C(C)C		NCCP 15864 carbapenem-resistant		16 µM
CC[C@H](C)[C@H](NC(=O)[C@H](CCCCN)NC(=O)[C@H](CCCCN)NC(=O)[C@H](CCCCN)NC(=O)[C@H](CCCCN)NC(=O)[C@H](CCCCN)NC(=O)[C@@H](N)CCCCN)C(=O)N[C@@H](CO)C(=O)N[C@@H](Cc1ccccc1)C(=O)N[C@@H](CC(C)C)C(=O)NCC(=O)N[C@@H](CO)C(=O)N[C@@H](CCCCN)C(=O)N[C@H](C(=O)N[C@H](C(=O)N[C@H](C(=O)N[C@@H](CC(C)C)C(=O)N[C@@H](CC(C)C)C(=O)N[C@@H](CCCCN)C(=O)N[C@@H](CCCNC(=N)N)C(N)=O)C(C)C)C(C)C)C(C)C	broth microdilution	ATCC 13883	highest value reported	8 µM
